Published values gathered from unrelated publications.
Compare with care: the assays were run in different laboratories. Numbers after ± are the reported error. Where no end group is shown, it is not given here.
MAL12: Alpha-glucosidase MAL12 (MAL12, Saccharomyces cerevisiae S288c, UniProt P53341)
UniProt P53341, sequence (whole entry, looked up): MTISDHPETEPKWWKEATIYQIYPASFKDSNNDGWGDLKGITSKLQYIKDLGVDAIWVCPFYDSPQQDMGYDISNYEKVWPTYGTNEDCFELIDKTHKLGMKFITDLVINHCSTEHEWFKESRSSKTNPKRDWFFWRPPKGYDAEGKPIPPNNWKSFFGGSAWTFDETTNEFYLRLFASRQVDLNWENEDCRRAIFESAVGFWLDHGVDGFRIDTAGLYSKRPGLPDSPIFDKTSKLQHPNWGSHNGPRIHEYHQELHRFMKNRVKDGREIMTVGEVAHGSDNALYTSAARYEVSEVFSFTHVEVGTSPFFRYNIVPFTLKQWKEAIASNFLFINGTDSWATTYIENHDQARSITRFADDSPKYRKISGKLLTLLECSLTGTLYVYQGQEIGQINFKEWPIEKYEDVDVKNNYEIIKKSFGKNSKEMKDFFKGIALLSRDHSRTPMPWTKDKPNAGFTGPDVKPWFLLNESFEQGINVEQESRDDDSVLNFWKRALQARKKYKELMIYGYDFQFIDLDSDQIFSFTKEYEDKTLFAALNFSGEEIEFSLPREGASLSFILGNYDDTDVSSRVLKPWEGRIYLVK
SCN9A: Sodium channel protein type 9 subunit alpha (SCN9A, Homo sapiens, UniProt Q15858)
UniProt Q15858, sequence (whole entry, looked up): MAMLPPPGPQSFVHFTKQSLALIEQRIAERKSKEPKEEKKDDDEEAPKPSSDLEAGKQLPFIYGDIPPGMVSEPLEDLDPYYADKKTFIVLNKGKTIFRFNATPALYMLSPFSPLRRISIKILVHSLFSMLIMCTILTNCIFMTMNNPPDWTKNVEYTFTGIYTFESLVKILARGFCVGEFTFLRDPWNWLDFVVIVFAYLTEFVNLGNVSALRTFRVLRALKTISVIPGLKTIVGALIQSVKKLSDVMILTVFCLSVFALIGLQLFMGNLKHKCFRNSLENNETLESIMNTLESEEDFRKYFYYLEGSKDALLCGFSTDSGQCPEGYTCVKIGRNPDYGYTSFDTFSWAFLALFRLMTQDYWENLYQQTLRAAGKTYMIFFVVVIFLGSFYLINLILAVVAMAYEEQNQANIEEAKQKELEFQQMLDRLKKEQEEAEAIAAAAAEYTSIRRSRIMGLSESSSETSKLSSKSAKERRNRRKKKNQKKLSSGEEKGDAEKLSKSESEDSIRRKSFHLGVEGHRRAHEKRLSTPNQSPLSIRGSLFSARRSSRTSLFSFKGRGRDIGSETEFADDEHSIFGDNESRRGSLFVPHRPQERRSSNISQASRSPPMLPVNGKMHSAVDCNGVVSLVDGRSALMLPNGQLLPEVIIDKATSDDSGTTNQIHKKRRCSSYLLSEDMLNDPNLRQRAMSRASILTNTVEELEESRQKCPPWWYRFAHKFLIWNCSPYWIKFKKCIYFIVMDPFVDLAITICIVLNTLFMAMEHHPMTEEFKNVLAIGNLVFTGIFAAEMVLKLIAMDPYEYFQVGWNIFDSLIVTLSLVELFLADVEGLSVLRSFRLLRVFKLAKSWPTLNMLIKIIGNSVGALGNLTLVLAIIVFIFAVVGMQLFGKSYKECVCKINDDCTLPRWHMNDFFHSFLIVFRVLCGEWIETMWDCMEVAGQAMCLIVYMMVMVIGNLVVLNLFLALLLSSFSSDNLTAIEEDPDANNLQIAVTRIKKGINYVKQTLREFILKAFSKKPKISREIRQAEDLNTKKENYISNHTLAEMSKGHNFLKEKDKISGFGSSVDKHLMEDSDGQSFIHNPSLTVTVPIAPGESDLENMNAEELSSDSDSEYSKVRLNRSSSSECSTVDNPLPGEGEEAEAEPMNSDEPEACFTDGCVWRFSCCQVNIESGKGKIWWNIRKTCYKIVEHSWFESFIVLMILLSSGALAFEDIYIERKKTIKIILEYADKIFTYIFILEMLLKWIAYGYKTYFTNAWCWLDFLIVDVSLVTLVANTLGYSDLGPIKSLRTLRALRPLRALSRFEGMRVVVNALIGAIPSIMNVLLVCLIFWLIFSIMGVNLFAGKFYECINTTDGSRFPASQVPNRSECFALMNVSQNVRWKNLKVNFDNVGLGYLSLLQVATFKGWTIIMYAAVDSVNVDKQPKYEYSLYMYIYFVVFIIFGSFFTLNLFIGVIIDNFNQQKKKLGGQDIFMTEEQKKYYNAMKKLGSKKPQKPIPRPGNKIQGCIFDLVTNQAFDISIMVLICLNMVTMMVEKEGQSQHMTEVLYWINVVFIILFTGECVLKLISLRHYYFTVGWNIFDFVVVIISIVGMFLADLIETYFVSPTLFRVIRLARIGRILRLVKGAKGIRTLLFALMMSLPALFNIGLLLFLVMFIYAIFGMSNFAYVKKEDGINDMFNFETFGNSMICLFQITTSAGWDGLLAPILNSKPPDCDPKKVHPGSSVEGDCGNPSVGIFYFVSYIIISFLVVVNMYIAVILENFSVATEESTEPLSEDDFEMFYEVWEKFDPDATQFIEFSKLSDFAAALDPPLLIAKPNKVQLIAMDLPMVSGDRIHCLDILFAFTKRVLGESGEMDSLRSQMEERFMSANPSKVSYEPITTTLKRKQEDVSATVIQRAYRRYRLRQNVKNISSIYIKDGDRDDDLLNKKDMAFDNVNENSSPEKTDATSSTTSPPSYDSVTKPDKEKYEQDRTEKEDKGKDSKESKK
WWOX WW1 domain: WW domain-containing oxidoreductase, WW1 domain (WWOX, Homo sapiens, UniProt Q9NZC7)
UniProt Q9NZC7, sequence (whole entry, unmodified, looked up): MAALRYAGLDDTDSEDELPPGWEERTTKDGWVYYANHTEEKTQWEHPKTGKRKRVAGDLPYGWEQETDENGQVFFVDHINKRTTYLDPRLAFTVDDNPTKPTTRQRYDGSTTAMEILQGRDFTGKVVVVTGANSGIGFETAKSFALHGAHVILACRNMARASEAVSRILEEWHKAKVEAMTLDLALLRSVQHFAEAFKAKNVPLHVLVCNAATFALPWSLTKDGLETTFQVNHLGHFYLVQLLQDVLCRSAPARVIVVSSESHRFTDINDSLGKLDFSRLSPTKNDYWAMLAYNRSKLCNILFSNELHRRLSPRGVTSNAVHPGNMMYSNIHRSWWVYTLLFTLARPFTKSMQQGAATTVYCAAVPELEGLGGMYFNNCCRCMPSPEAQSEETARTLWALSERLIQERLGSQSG
HBA1 with beta chain: Hemoglobin subunit alpha, with beta chain (HBA1, Homo sapiens, UniProt P69905)
UniProt P69905, sequence (whole entry, looked up): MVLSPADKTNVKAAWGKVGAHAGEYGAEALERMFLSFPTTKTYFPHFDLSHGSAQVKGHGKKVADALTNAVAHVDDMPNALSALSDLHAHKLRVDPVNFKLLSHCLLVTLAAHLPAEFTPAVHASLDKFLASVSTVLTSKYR
T1: RNA repeat, r(CGG) repeat (Homo sapiens); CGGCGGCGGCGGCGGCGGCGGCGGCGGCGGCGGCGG
B1: disulfide; chain GLIHQYCQGYWRHVPPSPREAPGAPRSPEPDQKKPRNRRHHPPDT (disulfide (positions not given here))
UniProt Q14833, sequence (whole entry, looked up): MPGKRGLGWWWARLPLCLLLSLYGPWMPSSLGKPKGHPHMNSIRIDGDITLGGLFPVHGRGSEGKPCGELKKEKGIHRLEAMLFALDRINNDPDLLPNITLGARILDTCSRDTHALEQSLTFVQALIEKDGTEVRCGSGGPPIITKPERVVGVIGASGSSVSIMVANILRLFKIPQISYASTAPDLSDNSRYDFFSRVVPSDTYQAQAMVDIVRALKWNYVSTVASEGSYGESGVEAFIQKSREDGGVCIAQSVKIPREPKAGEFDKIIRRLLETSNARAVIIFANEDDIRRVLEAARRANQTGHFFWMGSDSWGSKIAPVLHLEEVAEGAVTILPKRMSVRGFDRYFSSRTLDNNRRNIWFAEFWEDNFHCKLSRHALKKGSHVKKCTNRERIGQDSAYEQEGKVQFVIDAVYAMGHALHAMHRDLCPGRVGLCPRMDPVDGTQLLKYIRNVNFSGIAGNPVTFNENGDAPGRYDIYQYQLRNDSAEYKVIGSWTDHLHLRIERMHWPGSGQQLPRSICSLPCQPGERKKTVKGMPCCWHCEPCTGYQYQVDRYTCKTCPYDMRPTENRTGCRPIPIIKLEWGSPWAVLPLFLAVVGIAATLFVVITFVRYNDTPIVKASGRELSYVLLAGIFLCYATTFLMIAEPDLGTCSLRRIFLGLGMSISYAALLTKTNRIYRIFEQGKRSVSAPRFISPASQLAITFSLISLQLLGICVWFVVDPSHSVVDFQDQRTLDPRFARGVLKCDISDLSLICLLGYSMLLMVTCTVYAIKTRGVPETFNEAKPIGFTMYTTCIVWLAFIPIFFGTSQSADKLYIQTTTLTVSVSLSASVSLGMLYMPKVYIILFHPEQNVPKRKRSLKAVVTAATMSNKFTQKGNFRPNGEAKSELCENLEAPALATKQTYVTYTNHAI
UniProt P11021, sequence (whole entry, looked up): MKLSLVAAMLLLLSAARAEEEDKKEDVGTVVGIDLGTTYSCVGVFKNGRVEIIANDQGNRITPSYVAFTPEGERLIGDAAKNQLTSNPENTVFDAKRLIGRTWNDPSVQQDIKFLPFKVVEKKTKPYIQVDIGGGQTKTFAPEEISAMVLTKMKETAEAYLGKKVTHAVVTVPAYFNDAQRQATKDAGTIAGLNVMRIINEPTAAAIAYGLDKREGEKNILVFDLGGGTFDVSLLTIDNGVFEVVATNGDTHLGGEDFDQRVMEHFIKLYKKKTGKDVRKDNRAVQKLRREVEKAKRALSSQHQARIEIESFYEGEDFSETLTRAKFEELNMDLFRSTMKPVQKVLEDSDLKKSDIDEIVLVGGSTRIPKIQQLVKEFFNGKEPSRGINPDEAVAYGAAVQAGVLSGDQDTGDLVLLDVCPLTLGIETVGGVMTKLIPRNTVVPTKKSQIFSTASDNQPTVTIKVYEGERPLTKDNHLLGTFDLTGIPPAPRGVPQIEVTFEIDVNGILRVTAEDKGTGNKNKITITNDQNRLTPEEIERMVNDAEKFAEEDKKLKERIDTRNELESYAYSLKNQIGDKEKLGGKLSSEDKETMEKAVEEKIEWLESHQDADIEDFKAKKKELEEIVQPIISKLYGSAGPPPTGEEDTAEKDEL
UniProt Q02083, sequence (whole entry, looked up): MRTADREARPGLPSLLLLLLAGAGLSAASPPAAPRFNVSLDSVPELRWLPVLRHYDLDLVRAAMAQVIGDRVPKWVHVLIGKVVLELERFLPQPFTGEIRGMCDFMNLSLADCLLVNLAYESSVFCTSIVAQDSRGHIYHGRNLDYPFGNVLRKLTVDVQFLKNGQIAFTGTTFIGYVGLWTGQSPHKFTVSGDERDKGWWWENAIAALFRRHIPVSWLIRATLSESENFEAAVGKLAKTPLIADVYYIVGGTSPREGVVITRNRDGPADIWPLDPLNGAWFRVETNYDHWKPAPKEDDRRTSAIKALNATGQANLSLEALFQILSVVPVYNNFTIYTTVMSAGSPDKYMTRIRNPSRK

For `CC1=C(C(=O)OCc2ccccc2)C(c2ccc(-c3ccccc3)cc2)NC(=O)N1Cc1ccc(-c2nnn[nH]2)cc1` (stereo not shown), “fold change in activity” read -5 fold (Heat shock 70 kDa protein 1A, with Hdj2 (HSPA1A, Homo sapiens, UniProt P0DMV8); ATPase activity, inhibitor; 100 µM, Hsp40-stimulated activity, added: Hdj2 Hsp70:Hsp40 1:0.5; baseline: DMSO, negative means inhibition).
`C[C@H]1CN(C(=O)Nc2ccc(Cl)c(Cl)c2)CCN1c1ccnc(Nc2ccc(Cl)cc2)n1` gave an activity ratio of about 3 fold (MAL12; enzyme activity, inhibitor; Saccharomyces cerevisiae; added: p-nitrophenyl glucoside substrate; baseline: S over R enantiomer).
`COC(=O)c1scc(C)c1NC(=O)C(C)N1CCN(CC2CC2)CC1` (stereo not shown) — result for “capacity factor k′”: 5.4 (SCN9A; cell membrane chromatography; higher = stronger binding).
`COc1c(O)ccc2c(=O)cc(-c3ccccc3)oc12` gave an inhibition of 6.5% (MAL12; enzyme activity, inhibitor, absorbance; 25 µM).
For `CCC/C=C\C=O`, “remaining 1-NPN fluorescence” read 62.4 ± 3.81% (chemosensory protein 3 (Chilo suppressalis, UniProt V9PY40); binding, competitive ligand, fluorescence competitive binding; highest concentration tested, pH 7.4, protein 2 µM, added: 1-NPN 2 µM; baseline: no ligand).
`CN(C)C(=O)CCSC(SCCC(=O)O)c1cccc(/C=C/c2ccc3ccc(Cl)cc3n2)c1` (stereo not shown) — result for “naringenin glucuronide excretion into lumen”: “no effect” (ATP-binding cassette sub-family C member 2 (Rattus norvegicus, UniProt Q63120); inhibitor, intestinal perfusion; rat; 50 µM, added: naringenin 10 µM).
`CCC(C(=O)Nc1c(C)csc1C(=O)OC)N1CCN(C(C)C)CC1` (stereo not shown) — result for “capacity factor k′”: 82.6 (SCN9A; cell membrane chromatography; higher = stronger binding).
For `B1`, “sedimentation coefficient, dimer peak” read 4.65 S (Neuropilin-2 (NRP2, Homo sapiens, UniProt O60462); sedimentation velocity AUC; 2.5-fold molar excess, pH 7.5, 4 °C, 8 µM b1b2 domain).
`CSCC[C@H](NC(=O)[C@@H]1CCCN1C(=O)[C@@H](NC(=O)[C@H](Cc1ccc(O)cc1)NC(=O)[C@H](C)NC(=O)[C@@H]1CCCN1C(=O)[C@@H]1CCCN1C(=O)[C@@H]1CCCN1C(=O)[C@H](CO)NC(=O)[C@H](Cc1c[nH]cn1)NC(=O)CN)[C@@H](C)O)C(=O)N[C@@H](CO)C(=O)O` gave a TΔS of 1.04 ± 0.4 kcal/mol (WWOX WW1 domain; binding, ITC; pH 7.0, 25 °C).
For `CC(C)CC(NC(=O)C(CC(N)=O)NC(=O)C(CC(C)C)NC(=O)C(NC(=O)C(NC(=O)C1CCCN1C(=O)C(N)CCCNC(=N)N)C(C)O)C(C)O)C(=O)NCC(=O)NCC(=O)NCCCNC(=O)c1ccc(-c2n[nH]c3ccccc23)cc1` (stereo not shown), “loss of binding competition” read 600 fold (MAPK8 (Homo sapiens, UniProt P45983); inhibitor, DELFIA displacement; concentration not given, added: staurosporine 0.5 µM; baseline: without staurosporine).
`COC(=O)c1scc(C)c1NC(=O)C(C)N1CCN(C(C)(C)C)CC1` (stereo not shown) — result for “capacity factor k′”: 0.2 (SCN9A; cell membrane chromatography; higher = stronger binding).
For `COc1ccc([C@H]2Sc3ccccc3N(CCN(C)C)C(=O)[C@H]2OC(C)=O)cc1`, the K1/2 was 0.56 ± 0.09 µM (CNGA1/CNGB1 (Bos taurus, UniProt Q00194+Q28181); cGMP-activated current, blocker, inside-out patch clamp; pH 7.2, about 20 °C, +60 mV, high-affinity component, added: 2.5 mM cGMP).
`CCCCC/C=C\S/C=C\CCCCCCCC(=O)O` gave a Kii of 20 µM (ALOX15 (Homo sapiens, UniProt P16050); inhibitor; pH 7.5, noncompetitive inhibition, added: linoleic acid and 13-HPODE).
Under “patients with IgE binding”, `CQQEPDDLKQKACES` is recorded as 42% (human IgE; peptide microarray; peptide, peanut-allergic patient sera; concentration not given, 16 h, 4 °C).
`CC[C@]1(O)C[C@H]2CN(CCc3c([nH]c4ccccc34)[C@@](C(=O)OC)(c3cc4c(cc3OC)N(C=O)[C@H]3[C@@](O)(C(=O)OC)[C@H](OC(C)=O)[C@]5(CC)C=CCN6CC[C@]43[C@@H]65)C2)C1` gave an inhibition of 31.1% (SLC22A5 (Homo sapiens, UniProt O76082); transporter uptake, inhibitor; 10 µM).
For `CCCCCC(O)/C=C/C=O` (stereo not shown), the IC50 was 51.8 µM (HSPA5 (Homo sapiens, UniProt P11021); ATPase activity, covalent inhibitor; 1 h preincubation, pH 7.4, 37 °C, estimated value, added: ATP 0.1 mM).
The cofactor occupancy of `Cc1cc2nc3c(=O)[nH]c(=O)nc-3n(C[C@H](O)[C@H](O)[C@H](O)COP(=O)(O)OP(=O)(O)OC[C@H]3O[C@@H](n4cnc5c(N)ncnc54)[C@H](O)[C@@H]3O)c2cc1C` is reported as over 95% (Cry4 (Columba livia, UniProt A0A386QUR4); UV-visible absorption; co-purified, mainly oxidized).
With `CC[C@H](C)[C@H](NC(=O)[C@@H]1CCCN1C(=O)[C@@H]1CCCN1C(=O)[C@@H]1CCCN1C(=O)[C@@H](NC(=O)[C@H](CC(N)=O)NC(=O)[C@@H](N)Cc1ccccc1)[C@@H](C)CC)C(=O)N[C@@H](Cc1ccc(O)cc1)C(=O)N[C@H](C(=O)N[C@@H](CO)C(=O)N[C@@H](CCCNC(=N)N)C(=O)N[C@@H](C)C(=O)O)[C@@H](C)O` the TΔS was -2.1 ± 0.92 kcal/mol (WW domain-containing oxidoreductase, WW1-WW2 tandem domains (WWOX, Homo sapiens, UniProt Q9NZC7); binding, ITC; pH 7.0, 25 °C).
`CCCOCc1ccc(C=O)o1` gave a peak modification of 25.4% (HBA1 with beta chain; measured: haemoglobin A adduct; human normal whole blood; 2 mM, 24 h, hematocrit 30%).
`CCCCCCCCC(=O)NC1CNC1`: IC50 “inactive” (NAAA (Homo sapiens, UniProt Q02083); enzyme activity, inhibitor, fluorogenic PAMCA hydrolysis; pH 4.5, added: 5 µM PAMCA).
With `CC(C)(C)OCc1ccc(C=O)o1` the peak modification was 6.3% (HBA1 with beta chain; measured: haemoglobin A adduct; human normal whole blood; 2000 µM, 24 h, hematocrit 30%).
With `CC(=O)[C@H]1CC[C@H]2[C@@H]3CCC4=CC(=O)CC[C@]4(C)[C@H]3CC[C@]12C` the maximal response was 122% (RORA (Homo sapiens, UniProt P35398); AlphaScreen; baseline: 25 µM 7α-hydroxycholesterol).
`CSc1ccc(/C=C2/C(C)=C(CC(=O)O)c3cc(F)ccc32)cc1`: IC50 “inactive” (PDE1C (Homo sapiens, UniProt Q14123); cAMP hydrolysis, inhibitor, IMAP fluorescence polarization; up to 200 µM).
With `CN1CCN(c2ccc3[nH]c(-c4ccc5[nH]c(-c6cccc(OCCCC(=O)NCCCN=[N+]=[N-])c6)nc5c4)nc3c2)CC1` the IC50 was 33 µM (T1, RNA repeat, r(CGG) repeat (Homo sapiens); DGCR8 displacement, competitor, TR-FRET; pH 7.5, 110 mM KCl, with yeast tRNA, added: DGCR8 protein).
`CC(C)C[C@H](NC(=O)[C@@H](NC(=O)[C@@H](N)[C@@H](C)O)C(C)C)C(=O)N1CCC[C@H]1C(=O)N1CCC[C@H]1C(=O)N1CCC[C@H]1C(=O)N1CCC[C@H]1C(=O)N[C@@H](Cc1ccc(O)cc1)C(=O)N[C@@H](CCCNC(=N)N)C(=O)N[C@@H](Cc1c[nH]cn1)C(=O)N[C@@H](C)C(=O)N[C@@H](CC(N)=O)C(=O)O` — result for “entropy term TΔS”: 0.52 ± 0.39 kcal/mol (WWOX WW1 domain; binding to WW1 domain, isothermal titration calorimetry; pH 7.0, 25 °C).
`CSCC[C@@H]1NC(=O)[C@H](C)NC(=O)[C@H](CCC(=O)O)NC(=O)[C@@H](NC(=O)[C@@H]2CCCN2C(=O)[C@H](CO)NC(=O)[C@H](CO)NC(=O)CNC(=O)[C@H](CO)NC(=O)CNC(=O)[C@H](CO)NC(=O)CNC(=O)[C@H](CCCCN)NC(=O)[C@H](CC(=O)O)NC(=O)[C@H](CC(=O)O)NC(=O)[C@H](CC(=O)O)NC(=O)[C@H](CC(=O)O)NC(=O)[C@H](CCCCN)NC(=O)[C@H](Cc2ccc(O)cc2)NC(=O)[C@H](CC(=O)O)NC(=O)[C@@H](N)CCSC)Cc2ccc(cc2)OCCSC[C@@H](C(=O)N[C@H](C(=O)N[C@@H](CC(=O)O)C(=O)N[C@H](C(=O)O)[C@@H](C)O)[C@@H](C)O)NC(=O)[C@H](CCSC)NC(=O)[C@H](CC(=O)O)NC1=O` gave a binding reduction of about 40% (Sonic hedgehog; 1 µM, 1 h, room temperature, added: 200 µM robotnikinin; baseline: no competitor).
The inhibition of `COc1c(O)cc(O)c2c(=O)cc(-c3ccc(O)cc3)oc12` is reported as over 99% (MAL12; enzyme activity, inhibitor; 100 µM).
Under “patients with IgE binding”, `RCTKLEYDPRCVYDP` is recorded as 50% (human IgE; peptide microarray; peptide, walnut-allergic patient sera; concentration not given, 16 h, 4 °C).
The kcat of `O=C(O)[C@H]1O[C@@H](O[C@H]2c3cc4ccc5cccc6c7ccccc7c(c3C=C[C@@H]2O)c4c56)[C@H](O)[C@@H](O)[C@@H]1O` (relative stereo) is reported as 0.00015 ± 5e-05 s⁻¹ (UGT1A7 (Homo sapiens, UniProt Q9HAW7); glucuronidation, substrate; UGT-expressing HEK293 homogenate; normalized to UGT expression).
`COc1ccc2c(=O)c(OC)c(-c3ccccc3)oc2c1` gave an inhibition of 11.5% (MAL12; enzyme activity, inhibitor, absorbance; 25 µM).
`O=C(Nc1ccccn1)C12CC1/C(=N\O)c1ccccc1O2` (stereo not shown) gave a maximal potentiation of 94.9% (GRM4 (Homo sapiens, UniProt Q14833); calcium mobilisation, positive allosteric modulator; CHO hmGluR4/Gqi5; added: glutamate EC20; baseline: PHCCC).

For quick reference, copied from above:
With `CC(C)(C)OCc1ccc(C=O)o1` the peak modification was 6.3% (HBA1 with beta chain; measured: haemoglobin A adduct; human normal whole blood; 2000 µM, 24 h, hematocrit 30%).
With `CC(=O)[C@H]1CC[C@H]2[C@@H]3CCC4=CC(=O)CC[C@]4(C)[C@H]3CC[C@]12C` the maximal response was 122% (RORA (Homo sapiens, UniProt P35398); AlphaScreen; baseline: 25 µM 7α-hydroxycholesterol).
`CSc1ccc(/C=C2/C(C)=C(CC(=O)O)c3cc(F)ccc32)cc1`: IC50 “inactive” (PDE1C (Homo sapiens, UniProt Q14123); cAMP hydrolysis, inhibitor, IMAP fluorescence polarization; up to 200 µM).
With `CN1CCN(c2ccc3[nH]c(-c4ccc5[nH]c(-c6cccc(OCCCC(=O)NCCCN=[N+]=[N-])c6)nc5c4)nc3c2)CC1` the IC50 was 33 µM (T1, RNA repeat, r(CGG) repeat (Homo sapiens); DGCR8 displacement, competitor, TR-FRET; pH 7.5, 110 mM KCl, with yeast tRNA, added: DGCR8 protein).
`CC(C)C[C@H](NC(=O)[C@@H](NC(=O)[C@@H](N)[C@@H](C)O)C(C)C)C(=O)N1CCC[C@H]1C(=O)N1CCC[C@H]1C(=O)N1CCC[C@H]1C(=O)N1CCC[C@H]1C(=O)N[C@@H](Cc1ccc(O)cc1)C(=O)N[C@@H](CCCNC(=N)N)C(=O)N[C@@H](Cc1c[nH]cn1)C(=O)N[C@@H](C)C(=O)N[C@@H](CC(N)=O)C(=O)O` — result for “entropy term TΔS”: 0.52 ± 0.39 kcal/mol (WWOX WW1 domain; binding to WW1 domain, isothermal titration calorimetry; pH 7.0, 25 °C).
